# Results of several laboratories.
# By UniProt entry, the sequences of proteins in these tests, tags left out. Where a name states a change or a piece, a line headed by the entry shows the natural chain unless it says otherwise. Residues count along the entry.
# UniProt Q14833, 33-912 limits assumed: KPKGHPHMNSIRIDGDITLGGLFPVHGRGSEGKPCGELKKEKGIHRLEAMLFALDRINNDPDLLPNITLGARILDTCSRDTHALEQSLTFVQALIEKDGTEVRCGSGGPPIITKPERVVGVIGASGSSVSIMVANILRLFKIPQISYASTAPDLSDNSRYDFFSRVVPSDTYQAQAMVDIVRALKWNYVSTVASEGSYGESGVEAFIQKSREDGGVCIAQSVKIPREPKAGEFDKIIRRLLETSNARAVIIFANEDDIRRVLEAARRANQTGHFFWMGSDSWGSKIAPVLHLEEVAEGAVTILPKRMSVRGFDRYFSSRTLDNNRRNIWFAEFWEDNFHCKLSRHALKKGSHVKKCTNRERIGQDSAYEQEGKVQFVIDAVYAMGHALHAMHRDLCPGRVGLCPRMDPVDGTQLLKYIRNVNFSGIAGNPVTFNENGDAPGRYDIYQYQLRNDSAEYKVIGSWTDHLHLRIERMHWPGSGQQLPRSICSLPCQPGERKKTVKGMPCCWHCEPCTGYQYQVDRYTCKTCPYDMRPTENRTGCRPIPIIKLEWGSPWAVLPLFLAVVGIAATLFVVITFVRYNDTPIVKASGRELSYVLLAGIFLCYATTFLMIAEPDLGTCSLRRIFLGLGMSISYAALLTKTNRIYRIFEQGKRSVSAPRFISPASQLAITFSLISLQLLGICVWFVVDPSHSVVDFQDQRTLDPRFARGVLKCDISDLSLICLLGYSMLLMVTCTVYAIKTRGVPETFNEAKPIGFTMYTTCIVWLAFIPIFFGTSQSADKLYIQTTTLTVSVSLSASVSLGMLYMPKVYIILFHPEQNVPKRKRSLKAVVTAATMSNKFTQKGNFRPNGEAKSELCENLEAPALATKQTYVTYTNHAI
# UniProt P46934, whole entry, looked up: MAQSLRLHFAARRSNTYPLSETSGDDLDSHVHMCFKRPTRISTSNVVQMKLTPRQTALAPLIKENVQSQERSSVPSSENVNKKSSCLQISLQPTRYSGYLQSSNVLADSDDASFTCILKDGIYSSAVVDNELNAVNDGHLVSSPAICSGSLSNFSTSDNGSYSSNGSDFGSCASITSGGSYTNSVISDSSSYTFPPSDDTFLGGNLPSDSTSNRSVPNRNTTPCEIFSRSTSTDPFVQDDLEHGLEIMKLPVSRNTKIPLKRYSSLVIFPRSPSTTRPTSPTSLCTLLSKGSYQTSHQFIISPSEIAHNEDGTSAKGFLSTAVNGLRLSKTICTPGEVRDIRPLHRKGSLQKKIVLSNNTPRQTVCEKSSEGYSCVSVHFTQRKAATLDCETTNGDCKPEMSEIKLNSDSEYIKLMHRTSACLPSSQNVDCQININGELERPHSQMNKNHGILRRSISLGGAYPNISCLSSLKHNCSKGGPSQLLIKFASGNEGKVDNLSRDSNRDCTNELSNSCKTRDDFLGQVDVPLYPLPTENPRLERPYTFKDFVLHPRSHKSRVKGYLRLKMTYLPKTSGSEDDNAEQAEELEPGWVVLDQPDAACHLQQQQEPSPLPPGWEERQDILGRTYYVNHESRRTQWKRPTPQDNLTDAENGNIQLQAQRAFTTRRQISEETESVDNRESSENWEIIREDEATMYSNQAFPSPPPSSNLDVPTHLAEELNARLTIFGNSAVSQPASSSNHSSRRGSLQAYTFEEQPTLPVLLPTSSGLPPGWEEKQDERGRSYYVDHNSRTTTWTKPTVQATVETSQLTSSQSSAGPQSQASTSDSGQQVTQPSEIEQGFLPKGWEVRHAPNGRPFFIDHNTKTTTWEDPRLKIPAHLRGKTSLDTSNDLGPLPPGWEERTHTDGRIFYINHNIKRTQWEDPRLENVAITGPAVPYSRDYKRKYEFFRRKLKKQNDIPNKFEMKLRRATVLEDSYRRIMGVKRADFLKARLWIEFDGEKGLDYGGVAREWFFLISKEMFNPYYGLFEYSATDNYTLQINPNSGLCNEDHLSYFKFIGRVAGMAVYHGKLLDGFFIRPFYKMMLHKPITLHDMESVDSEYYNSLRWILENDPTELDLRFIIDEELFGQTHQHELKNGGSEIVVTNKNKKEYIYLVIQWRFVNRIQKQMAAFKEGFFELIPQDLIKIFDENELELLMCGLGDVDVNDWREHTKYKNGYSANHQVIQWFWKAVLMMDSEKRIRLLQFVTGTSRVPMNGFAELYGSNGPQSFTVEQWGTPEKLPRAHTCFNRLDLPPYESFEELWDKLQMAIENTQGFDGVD
# UniProt P21462, whole entry: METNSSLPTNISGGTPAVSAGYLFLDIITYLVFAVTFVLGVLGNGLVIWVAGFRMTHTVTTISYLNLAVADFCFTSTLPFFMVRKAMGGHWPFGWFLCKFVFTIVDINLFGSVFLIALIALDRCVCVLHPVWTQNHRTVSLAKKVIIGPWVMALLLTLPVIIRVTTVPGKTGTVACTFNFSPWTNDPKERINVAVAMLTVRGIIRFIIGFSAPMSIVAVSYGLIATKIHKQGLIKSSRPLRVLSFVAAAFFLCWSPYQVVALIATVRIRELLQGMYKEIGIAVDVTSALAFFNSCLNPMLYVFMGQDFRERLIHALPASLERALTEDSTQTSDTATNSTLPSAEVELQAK
# UniProt P05067, 672-713 limits assumed: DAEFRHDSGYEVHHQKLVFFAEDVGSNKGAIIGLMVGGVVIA
# UniProt Q86U86, whole entry V269I, looked up: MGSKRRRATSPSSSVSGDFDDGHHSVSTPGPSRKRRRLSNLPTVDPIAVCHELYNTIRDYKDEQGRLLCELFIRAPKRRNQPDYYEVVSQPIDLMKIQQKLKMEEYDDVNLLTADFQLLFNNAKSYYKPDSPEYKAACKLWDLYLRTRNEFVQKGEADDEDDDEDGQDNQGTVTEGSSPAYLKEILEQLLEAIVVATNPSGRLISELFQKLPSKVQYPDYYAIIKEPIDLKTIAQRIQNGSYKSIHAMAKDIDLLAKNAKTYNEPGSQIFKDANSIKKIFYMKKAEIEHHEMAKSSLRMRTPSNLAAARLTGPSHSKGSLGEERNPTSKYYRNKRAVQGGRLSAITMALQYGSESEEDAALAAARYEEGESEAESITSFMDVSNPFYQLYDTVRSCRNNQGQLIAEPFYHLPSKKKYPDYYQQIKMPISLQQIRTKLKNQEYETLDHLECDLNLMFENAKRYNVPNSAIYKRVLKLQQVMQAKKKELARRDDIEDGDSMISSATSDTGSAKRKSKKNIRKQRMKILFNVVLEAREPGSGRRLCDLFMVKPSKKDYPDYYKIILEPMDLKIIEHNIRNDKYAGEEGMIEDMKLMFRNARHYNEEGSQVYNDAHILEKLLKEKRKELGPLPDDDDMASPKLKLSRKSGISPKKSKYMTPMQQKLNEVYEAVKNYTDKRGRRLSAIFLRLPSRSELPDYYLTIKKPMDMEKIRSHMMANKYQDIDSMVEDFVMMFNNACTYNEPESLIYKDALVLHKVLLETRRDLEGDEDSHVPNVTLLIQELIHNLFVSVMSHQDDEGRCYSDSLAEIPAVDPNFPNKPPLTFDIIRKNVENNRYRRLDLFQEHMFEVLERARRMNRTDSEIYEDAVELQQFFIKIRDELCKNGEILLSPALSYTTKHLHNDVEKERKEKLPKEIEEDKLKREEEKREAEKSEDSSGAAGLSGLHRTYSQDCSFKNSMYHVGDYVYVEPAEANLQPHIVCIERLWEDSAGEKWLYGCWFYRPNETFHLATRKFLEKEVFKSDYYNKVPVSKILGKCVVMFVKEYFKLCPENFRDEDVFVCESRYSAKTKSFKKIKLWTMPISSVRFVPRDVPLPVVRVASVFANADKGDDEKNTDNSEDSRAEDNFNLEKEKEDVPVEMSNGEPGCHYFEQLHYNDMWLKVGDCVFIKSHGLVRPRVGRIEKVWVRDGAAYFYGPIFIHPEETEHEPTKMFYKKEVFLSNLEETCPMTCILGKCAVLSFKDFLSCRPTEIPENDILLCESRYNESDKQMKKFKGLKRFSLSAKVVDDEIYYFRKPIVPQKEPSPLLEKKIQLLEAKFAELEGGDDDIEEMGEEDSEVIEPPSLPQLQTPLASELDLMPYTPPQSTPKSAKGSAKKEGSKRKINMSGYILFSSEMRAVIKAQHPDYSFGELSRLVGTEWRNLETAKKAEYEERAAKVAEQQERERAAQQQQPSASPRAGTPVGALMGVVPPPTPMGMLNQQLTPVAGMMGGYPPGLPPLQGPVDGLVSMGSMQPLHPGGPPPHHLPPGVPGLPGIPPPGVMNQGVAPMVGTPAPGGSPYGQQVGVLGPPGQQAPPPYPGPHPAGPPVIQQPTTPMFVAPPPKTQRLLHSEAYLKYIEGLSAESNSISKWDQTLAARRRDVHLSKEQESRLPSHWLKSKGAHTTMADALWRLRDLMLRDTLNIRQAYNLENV
# UniProt P22756, 31-920 isoform 4 limits assumed: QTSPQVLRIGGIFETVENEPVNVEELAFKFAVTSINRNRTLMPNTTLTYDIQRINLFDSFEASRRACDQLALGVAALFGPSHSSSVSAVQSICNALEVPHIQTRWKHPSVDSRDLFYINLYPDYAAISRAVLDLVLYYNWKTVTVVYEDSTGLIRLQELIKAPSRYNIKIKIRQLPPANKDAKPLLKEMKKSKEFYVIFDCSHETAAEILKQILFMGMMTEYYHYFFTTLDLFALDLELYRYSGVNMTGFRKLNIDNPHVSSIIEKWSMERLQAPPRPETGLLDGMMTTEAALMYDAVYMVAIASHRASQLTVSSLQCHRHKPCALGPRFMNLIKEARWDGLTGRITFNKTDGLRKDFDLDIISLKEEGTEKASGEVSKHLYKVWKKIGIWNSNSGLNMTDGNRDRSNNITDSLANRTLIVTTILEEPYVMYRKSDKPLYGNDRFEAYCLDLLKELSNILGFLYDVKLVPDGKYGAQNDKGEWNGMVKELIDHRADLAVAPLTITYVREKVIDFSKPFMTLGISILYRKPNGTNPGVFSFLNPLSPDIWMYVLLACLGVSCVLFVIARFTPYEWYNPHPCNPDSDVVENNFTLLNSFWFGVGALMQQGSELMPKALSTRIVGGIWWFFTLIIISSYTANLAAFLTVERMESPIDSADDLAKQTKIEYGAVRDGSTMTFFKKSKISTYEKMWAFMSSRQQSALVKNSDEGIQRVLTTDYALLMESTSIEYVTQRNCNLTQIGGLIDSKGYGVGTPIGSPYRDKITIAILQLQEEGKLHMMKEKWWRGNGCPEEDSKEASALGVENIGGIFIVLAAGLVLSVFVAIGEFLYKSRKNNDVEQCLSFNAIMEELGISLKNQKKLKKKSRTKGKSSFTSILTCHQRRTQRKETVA
# UniProt Q96EB6, whole entry: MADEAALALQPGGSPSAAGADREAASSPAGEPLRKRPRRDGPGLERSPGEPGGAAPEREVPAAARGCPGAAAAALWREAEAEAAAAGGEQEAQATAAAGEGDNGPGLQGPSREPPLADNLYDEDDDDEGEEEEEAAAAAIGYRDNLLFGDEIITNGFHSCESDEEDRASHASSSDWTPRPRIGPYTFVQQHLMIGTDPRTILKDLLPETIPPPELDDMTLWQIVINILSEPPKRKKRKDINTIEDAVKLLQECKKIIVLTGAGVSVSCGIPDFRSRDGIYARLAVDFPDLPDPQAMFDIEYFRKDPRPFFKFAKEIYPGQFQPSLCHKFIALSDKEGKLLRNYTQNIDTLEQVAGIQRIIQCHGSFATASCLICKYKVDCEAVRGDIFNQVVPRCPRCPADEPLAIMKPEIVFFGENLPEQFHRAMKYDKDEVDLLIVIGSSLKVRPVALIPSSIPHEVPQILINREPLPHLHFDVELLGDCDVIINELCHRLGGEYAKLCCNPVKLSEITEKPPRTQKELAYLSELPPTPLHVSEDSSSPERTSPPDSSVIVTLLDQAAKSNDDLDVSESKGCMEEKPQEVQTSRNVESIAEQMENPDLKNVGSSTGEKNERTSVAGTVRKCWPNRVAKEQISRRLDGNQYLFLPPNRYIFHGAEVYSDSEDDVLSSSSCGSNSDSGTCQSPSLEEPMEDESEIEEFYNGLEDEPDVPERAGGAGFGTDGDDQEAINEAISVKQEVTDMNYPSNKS
# UniProt Q99797, 36-713 limits assumed: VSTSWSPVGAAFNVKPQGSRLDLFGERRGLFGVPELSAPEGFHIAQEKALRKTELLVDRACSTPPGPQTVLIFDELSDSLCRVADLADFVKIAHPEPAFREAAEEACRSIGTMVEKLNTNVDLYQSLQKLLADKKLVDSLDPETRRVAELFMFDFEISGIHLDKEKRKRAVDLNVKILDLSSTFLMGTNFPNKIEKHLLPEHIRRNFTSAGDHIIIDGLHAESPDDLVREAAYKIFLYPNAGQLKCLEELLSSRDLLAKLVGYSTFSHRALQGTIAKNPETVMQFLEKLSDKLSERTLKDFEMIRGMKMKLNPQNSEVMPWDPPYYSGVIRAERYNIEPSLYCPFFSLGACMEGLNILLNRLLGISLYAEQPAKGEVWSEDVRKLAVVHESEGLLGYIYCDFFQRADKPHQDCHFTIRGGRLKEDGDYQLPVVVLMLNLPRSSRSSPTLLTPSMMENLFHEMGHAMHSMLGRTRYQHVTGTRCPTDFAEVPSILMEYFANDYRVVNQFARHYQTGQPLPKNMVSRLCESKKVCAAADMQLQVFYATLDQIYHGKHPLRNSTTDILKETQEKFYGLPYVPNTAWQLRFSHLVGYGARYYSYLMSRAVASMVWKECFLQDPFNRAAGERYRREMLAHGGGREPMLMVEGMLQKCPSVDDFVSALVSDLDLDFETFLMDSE
# Compare with care: the assays were run in different laboratories. Several values in a cell are separate wells, animals, samples, runs or records. ± gives the spread as reported.
# GRM4: Metabotropic glutamate receptor 4 (GRM4, Homo sapiens, UniProt Q14833)
# Lysophospholipase-like protein 1: Lysophospholipase-like protein 1 (Mus musculus, UniProt Q3UFF7)
# RPA1 N-terminal domain: Replication protein A 70 kDa DNA-binding subunit, N-terminal domain (RPA1, Homo sapiens, UniProt P27694)
# Grm2: Metabotropic glutamate receptor 2 (Grm2, Rattus norvegicus, UniProt P31421)
# GLP1R: Glucagon-like peptide 1 receptor (GLP1R, Homo sapiens, UniProt P43220)
# E3 ubiquitin-protein ligase NEDD4: E3 ubiquitin-protein ligase NEDD4 (Homo sapiens, UniProt P46934)
Structure (SMILES),target,assay,test system,setting,scale,quantity,value
CC(=O)NCCCC[C@H](NC(C)=O)C(=O)Nc1ccc2c(C)cc(=O)oc2c1,"HDAC8 (Homo sapiens, UniProt Q9BY41)","deacetylation, substrate",,"25 °C, together with: 150 nM enzyme",,kcat,0.07 ± 0.02 s⁻¹
COC(=O)[C@@]1(C)C=C(C(=O)Nc2cccc(C(=O)NC34CC(Nc5nccc(-c6cccnc6)n5)(C3)C4)c2)C(=O)CC1,"MAPK10 (Homo sapiens, UniProt P53779)","enzyme activity, inhibitor",,0.06097 µM,,remaining activity,0.226 fraction of control
CCCCCN1C(=O)C(O)=C(C(=O)c2ccccc2)C1c1cc(OC)ccc1OC (centres unmarked),"FPR1 (Homo sapiens, UniProt P21462)","fMLF-induced calcium mobilization, antagonist",HL-60 expressing FPR1,"concentration not given, inactive if none at 50 µM",,antagonist activity,active
COc1ccc(NC(=O)CN2CCCN(S(=O)(=O)c3cccs3)CC2)c(OC)c1,GRM4,"calcium mobilization, positive allosteric modulator",CHO cells with Gqi5,together with: glutamate,reference: PHCCC maximal response,maximal response,52.9%
Nc1nc(SCc2ccc(Cl)cc2)nn1S(=O)(=O)c1ccc2[nH]c(=O)[nH]c2c1,Lysophospholipase-like protein 1,"activator, gel-based ABPP, FP-rhodamine",HEK293 overexpressing Lysophospholipase-like protein 1,10 µM,,activation,89%
Cc1ccc(C(=O)Nc2ccc(F)cc2C(=O)O)cc1S(=O)(=O)Nc1cccc(Cl)c1,RPA1 N-terminal domain,"binding, fluorescence polarisation competition",,together with: FITC-ATRIP probe,,ligand efficiency,0.2
NC(=O)c1cn(-c2ccc(F)cc2)c2ccc(CN3CCCCCC3)cc2c1=O,Grm2,"calcium mobilization, negative allosteric modulator",,"30 µM, together with: glutamate 100 µM",reference: glutamate maximum,response,0.55 ± 0.21%
O=[N+]([O-])c1ccc(/C=C/c2c[nH]c3ccc(F)cc23)c(F)c1,"Amyloid-beta precursor protein, Aβ1-40 (APP, Homo sapiens, UniProt P05067)","Aβ40 aggregation, thioflavin T fluorescence",,25 µM,,inhibition,82%
Cc1ccc2c(c1)C(n1cc(CNc3ccc(C(=O)NCCC(=O)O)cc3)nn1)CCC2 (centres unmarked),GLP1R,"cAMP accumulation, positive allosteric modulator, HTRF",,"0.6 µM, together with: GLP-1(9-36) at EC20",reference: BETP,Emax,97%
O=C(CCl)N1CCN(c2cc(N3CCCC3)nc(N3CCCC3)n2)CC1,"Caspase-1 (CASP1, Homo sapiens, UniProt P29466)",DTT reversibility,,"concentration not given, together with: 10 mM DTT",,recovered enzyme activity,50 to 65%
CN1CCN(Cc2ccc3c(c2)c(=O)c(C(N)=O)cn3-c2ccc(F)cc2)CC1,Grm2,"calcium mobilization, negative allosteric modulator",,"30 µM, together with: glutamate 100 µM",reference: glutamate maximum,response,1.15 ± 0.32%
COC(=O)C1(C)C=C(C(=O)Nc2cccc(C(=O)Nc3ccc(Nc4nccc(-c5cccnc5)n4)c(C)c3)c2)C(=O)C1 (centres unmarked),"MAPK8 (Homo sapiens, UniProt P45983, C116S)",surface plasmon resonance,,"100, 300, 1000 nM, 1:1 binding model",,kon,250000 M⁻¹ s⁻¹
O=C1CCC(N2Cc3cc(-c4nc5ccccn5c4NC45CC6CC(CC(C6)C4)C5)ccc3C2=O)C(=O)N1 (centres unmarked),"WEE1/CRBN (Homo sapiens, UniProt P30291+Q96SW2, G322A)","degrader, HiBiT",MOLM-14,5 h,reference: G322A over wild type,DC50 ratio,50 fold
CC(=O)Nc1ncc(CN2CC[C@H](Oc3cccc(F)n3)C[C@@H]2C)s1 [isotope labelled],"Protein O-GlcNAcase (Macaca mulatta, UniProt F6QIP2)",autoradiography,rhesus monkey hypothalamus sections,"5 nM, radiolabelled compound",,specific binding,11.4 nCi/mg
CCOC(=O)/C=C/CNCCCCN1c2ccccc2CCc2ccc(Cl)cc21,E3 ubiquitin-protein ligase NEDD4,"inhibitor, Ub-TR-FRET",,"0.1372 µM, 1 h preincubation, HECT domain, together with: ATP 2 mM",higher = more ubiquitination,ubiquitination TR-FRET signal AUC,79800 a.u. and 83200 a.u. and 84400 a.u. and 130000 a.u. and 84000 a.u. and 78900 a.u.
CC(C)(Cn1cc(-c2ccc(B(O)O)cc2)nn1)c1c[nH]c2ccccc12,GLP1R,"cAMP accumulation, positive allosteric modulator, HTRF",,"0.6 µM, purified compound, together with: GLP-1(9-36) at EC20",reference: BETP,Emax,99 ± 1%
CC(=O)N1CCN(c2ccc(Nc3ncc4c(n3)N(C)C(=O)N(c3cc(NC(=O)c5ccc(CN6CCC(N(C)C)C6)c(C(F)(F)F)c5)ccc3C)C4)cn2)CC1 (centres unmarked),"FGFR4/Transcription factor ETV6 (Homo sapiens, UniProt P22455+P41212, V550E)",cell proliferation,Ba/F3 TEL-FGFR4 V550E,,,GI50,24 nM
COc1ccc(C(NS(=O)(=O)c2cccs2)C(=O)Nc2ccc(Cl)cc2)cc1 (centres unmarked),"Uracil nucleotide/cysteinyl leukotriene receptor, long isoform (GPR17, Homo sapiens, UniProt Q13304)","calcium mobilization, antagonist",1321N1 stably expressing GPR17,fitted at highest concentration,higher = stronger inhibition,Emax,109 ± 4.65%
Cc1cccc(C2NC(=O)c3c(Cl)cccc3N2)c1 (racemic),"Protein polybromo-1, BD2 (PBRM1, Homo sapiens, UniProt Q86U86, V269I)",ITC,,,reference: wild-type BD2 over V269I mutant,fold loss of affinity,5 fold
O=C(O)c1cc(C(=O)N[C@@H](Cc2cnc[nH]2)C(=O)O)cc([C@H]2CCN[C@@H]2C(=O)O)c1,"Glutamate receptor ionotropic, kainate 1 (Rattus norvegicus, UniProt P22756)",radioligand binding,Sf9 membranes,"10 µM, homomeric receptor, together with: [3H]SYM2081",,specific binding,76 ± 1%
CC(=O)N[C@@H](CCC(N)=O)C(=O)N[C@H](C(=O)N[C@@H](C)C(=O)N[C@@H](CCCNC(=N)N)C(=O)N[C@@H](CCCCNC(=O)CCc1ccc(N=Nc2ccc(N(C)C)cc2)cc1)C(=O)N[C@@H](CO)C(=O)N[C@H](C(=O)NCC(=O)NCC(=O)NCCCNC(=S)Nc1ccc2c(c1)C(=O)OC21c2ccc(O)cc2Oc2cc(O)ccc21)[C@@H](C)O)[C@@H](C)O,"SIRT1 (Homo sapiens, UniProt Q96EB6)","substrate, fluorescence kinetics",,7 nM SIRT1,,kcat/Km,230000 M⁻¹ s⁻¹
Cc1cc(NC(=O)c2cccc(NC(=O)C3=CC(C)(C)CC3=O)c2)ccc1Nc1nccc(-c2cccnc2)n1,"MAPK8 (Homo sapiens, UniProt P45983)","kinase activity, inhibitor",,"0.006774 µM, unit not given, together with: 10 mM GSH",reference: DMSO,remaining activity,0.946
O=C(Nc1ccc(F)cc1)C12CC1/C(=N\O)c1cc(Cl)ccc1O2 (centres unmarked),GRM4,"positive allosteric modulator, calcium mobilization",CHO expressing Gqi5,"concentration not given, together with: glutamate EC20",reference: (±)-PHCCC,response,18.2 ± 0.7%
COC(=O)CC(C(=O)/C=C/c1ccc(O)c(OC(F)(F)F)c1)C(=O)/C=C/c1ccc(O)c(OC(F)(F)F)c1,"APP (Homo sapiens, UniProt P05067)","SDS-PAGE western blot, measured: Aβ1-42 species 75-200 kDa",,"30 µM, 24 h, 37 °C, together with: Aβ 10 µM",reference: DMSO control,Aβ band density,575 ± 125%
Cc1ccc(NC(=O)c2ccc(C)c(S(=O)(=O)Nc3ccc(Br)cc3)c2)c(C(=O)O)c1,RPA1 N-terminal domain,"binding, fluorescence polarisation competition",,together with: FITC-ATRIP probe,,ligand efficiency,0.2
O=C(OC(C(F)(F)F)C(F)(F)F)N1CC[C@@H](OC(c2ccc(F)cc2)c2ccc(F)cc2)C1,"FAAH (Homo sapiens, UniProt O00519)","enzyme activity, inhibitor, fluorescence AAMCA substrate",,1 µM,,activity,inactive
CCOC(=O)/C=C/CNCCCN1c2ccccc2CCc2ccc([N+](=O)[O-])cc21,E3 ubiquitin-protein ligase NEDD4,"inhibitor, Ub-TR-FRET",,"3.704 µM, 1 h preincubation, HECT domain, together with: ATP 2 mM",higher = more ubiquitination,ubiquitination TR-FRET signal AUC,106000 a.u. and 104000 a.u. and 102000 a.u.
C/C=C/Cn1c(Cc2cc(OC)c(OC)c(OC)c2)nc2c(N)ncnc21,"Heat shock protein HSP 90-alpha, N-terminal domain (HSP90AA1, Homo sapiens, UniProt P07900, S52A)",isothermal titration calorimetry,,"298 K, N-terminal domain S52A",,ΔG,-7.35 ± 0.38 kcal/mol
O=C(O)c1ccccc1Nc1c(C(=O)O)ccnc1C(=O)O,"KDM4E (Homo sapiens, UniProt B2RXH2)","inhibitor, FDH-coupled spectrophotometry, measured: formaldehyde",,200 µM,,remaining activity,39%
Nc1nc(SCc2ccc(Cl)cc2)nn1S(=O)(=O)c1ccc2c(c1)CCC2,Lysophospholipase-like protein 1,"activator, gel-based ABPP FP-rhodamine",,,reference: DMSO,probe labelling,2.5 fold
CCOC(=O)/C=C/CNCCCN1c2ccccc2CCc2ccccc21,E3 ubiquitin-protein ligase NEDD4,"inhibitor, Ub-TR-FRET",,"0.005081 µM, 1 h preincubation, HECT domain, together with: ATP 2 mM",higher = more ubiquitination,ubiquitination TR-FRET signal AUC,130000 a.u. and 128000 a.u.
CC(C)C[C@H](NC(=O)[C@@H]1CCCN1C(=O)[C@H](CCC(N)=O)NC(=O)c1ccccc1N)C(=O)N[C@@H](C)C(=O)N[C@@H](CC(N)=O)C(=O)N[C@@H](CCCCN)C(=O)N[C@H](C(=O)N[C@@H](CCC(N)=O)C(=O)NCCNc1ccc([N+](=O)[O-])cc1[N+](=O)[O-])C(C)C,"Mitochondrial intermediate peptidase (MIPEP, Homo sapiens, UniProt Q99797)","substrate, FRET peptide hydrolysis",,,,kcat/Km,11000 M⁻¹ s⁻¹

# Repeated from above:
Structure (SMILES),target,assay,test system,setting,scale,quantity,value
CC(C)(Cn1cc(-c2ccc(B(O)O)cc2)nn1)c1c[nH]c2ccccc12,GLP1R,"cAMP accumulation, positive allosteric modulator, HTRF",,"0.6 µM, purified compound, together with: GLP-1(9-36) at EC20",reference: BETP,Emax,99 ± 1%
Nc1nc(SCc2ccc(Cl)cc2)nn1S(=O)(=O)c1ccc2c(c1)CCC2,Lysophospholipase-like protein 1,"activator, gel-based ABPP FP-rhodamine",,,reference: DMSO,probe labelling,2.5 fold
CC(=O)Nc1ncc(CN2CC[C@H](Oc3cccc(F)n3)C[C@@H]2C)s1 [isotope labelled],"Protein O-GlcNAcase (Macaca mulatta, UniProt F6QIP2)",autoradiography,rhesus monkey hypothalamus sections,"5 nM, radiolabelled compound",,specific binding,11.4 nCi/mg
